Assay results gathered from unrelated publications.
Parts stem from different laboratories: compare values within a part only. Substitutions count along the parent as printed.
UniProt P61075, sequence (whole entry, looked up): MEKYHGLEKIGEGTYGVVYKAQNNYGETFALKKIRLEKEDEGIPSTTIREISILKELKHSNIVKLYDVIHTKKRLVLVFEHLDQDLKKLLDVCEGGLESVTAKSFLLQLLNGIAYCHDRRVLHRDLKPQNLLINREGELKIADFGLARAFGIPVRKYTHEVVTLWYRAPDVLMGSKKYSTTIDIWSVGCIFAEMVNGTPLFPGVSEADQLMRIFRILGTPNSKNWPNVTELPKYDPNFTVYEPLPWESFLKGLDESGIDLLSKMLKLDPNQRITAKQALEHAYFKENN

Block 1 — method: universal PBM; molecule type: double-stranded DNA, one strand shown; matrix: in vitro; tested at: 600 nM; direction: higher = stronger binding; measurement: E-score
Target: Sal-like protein 4, full length isoform A (SALL4, Homo sapiens, UniProt Q9UJQ4, residues 1-1053)
UniProt Q9UJQ4, sequence (whole entry, looked up): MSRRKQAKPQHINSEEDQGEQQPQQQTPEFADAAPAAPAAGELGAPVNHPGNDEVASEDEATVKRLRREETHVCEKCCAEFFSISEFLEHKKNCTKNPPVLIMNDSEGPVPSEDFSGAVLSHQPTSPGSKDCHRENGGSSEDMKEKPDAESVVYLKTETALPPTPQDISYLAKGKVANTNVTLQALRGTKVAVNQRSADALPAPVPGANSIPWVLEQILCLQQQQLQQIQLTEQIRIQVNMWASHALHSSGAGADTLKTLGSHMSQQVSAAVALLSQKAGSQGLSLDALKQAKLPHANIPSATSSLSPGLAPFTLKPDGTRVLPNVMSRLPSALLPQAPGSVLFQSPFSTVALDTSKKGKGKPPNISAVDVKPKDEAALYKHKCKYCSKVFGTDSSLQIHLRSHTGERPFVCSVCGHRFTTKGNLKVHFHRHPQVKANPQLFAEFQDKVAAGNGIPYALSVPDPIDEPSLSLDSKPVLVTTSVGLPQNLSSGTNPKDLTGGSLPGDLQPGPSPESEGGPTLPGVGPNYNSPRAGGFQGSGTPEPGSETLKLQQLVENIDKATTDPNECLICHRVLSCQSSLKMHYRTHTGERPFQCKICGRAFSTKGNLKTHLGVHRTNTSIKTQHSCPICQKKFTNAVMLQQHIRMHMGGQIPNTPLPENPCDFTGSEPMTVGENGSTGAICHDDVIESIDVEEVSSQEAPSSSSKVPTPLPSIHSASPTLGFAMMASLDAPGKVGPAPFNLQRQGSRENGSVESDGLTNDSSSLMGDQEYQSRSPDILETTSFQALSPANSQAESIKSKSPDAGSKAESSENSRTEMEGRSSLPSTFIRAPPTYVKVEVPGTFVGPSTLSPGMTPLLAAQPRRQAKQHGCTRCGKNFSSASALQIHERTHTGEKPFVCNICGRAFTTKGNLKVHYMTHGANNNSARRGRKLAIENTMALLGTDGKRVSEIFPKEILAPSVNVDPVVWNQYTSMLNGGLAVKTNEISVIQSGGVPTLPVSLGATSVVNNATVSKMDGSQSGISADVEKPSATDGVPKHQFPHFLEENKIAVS
Setting: 8-mer, flanks averaged, mean of replicates
GGCTTAAA: 0.0161
ACTTGGCC: -0.176
GCCGGGGA: -0.303
GATGCATA: 0.15
GTCAAGCA: -0.216
CCGAACGA: -0.103
GACGTACA: 0.00893
AATCCGGG: -0.222

Block 2 — method: RNA Bind-n-Seq; molecule type: RNA; matrix: in vitro; tested at: 20 nM; setting: 6-mer, flanks averaged, single round; with: 150 mM LiCl; baseline: input library; direction: higher = stronger binding; measurement: 6-mer enrichment (R)
Target: TAR DNA-binding protein 43, full length, His tag (TARDBP, Homo sapiens, UniProt Q13148, residues 1-414)
AUAACA: 1.03
UAGUCU: 0.877
CCGUGC: 0.927
AUCCUG: 0.84
AACCAU: 0.86
GGAUUC: 0.875
UUUUGC: 1.24
UGAGGG: 1.32

Block 3 — target: CCNE2, cyclin fold, Cln2 fusion (human); method: yeast growth competition, sequencing; matrix: yeast; setting: strong parent motif; baseline: not given; direction: higher = stronger binding; measurement: normalised enrichment score; starting sequence: viral docking peptide; YKVKRRLVFGADD
G10H: 4.72
R5N: 0.253
V3S: 0.8
R5F: 0.142
K4G: 0.993
L7C: 0.22
F9V: 0.784
K4T: 2.14
L7F: 0.365
D12E: 5.25
V8N: 5.52
D12G: 6.01
R5K F9L: 0.271
V3E: 0.483
R5A L7A: 0.486
K4A: 2.98
V8L: 5
K2D: 4.99
L7A: 0.422
A11F: 5.19
F9S: 0.747
V3R: 0.67
R6T: 1.97
K2I: 4.23
G10L: 4.24

Block 4 — target: OGT, full length, His-tagged (human); method: phage display, sequencing; matrix: in vitro; tested at: 1 µg OGT; baseline: input library; direction: higher = stronger binding; measurement: fold enrichment; starting sequence: peptide; GDFPVMFMPKYSIIY
Setting: single substitutions, 15-mer displayed peptide, unchanged parent 5.27
GDFPSMFMPKYSIIY [V5S]: 8.39 fold
GDFPVNFMPKYSIIY [M6N]: 5.39 fold
GDFPVMFMPKMSIIY [Y11M]: 2.28 fold
GDFHVMFMPKYSIIY [P4H]: 4.95 fold
GDFPVMSMPKYSIIY [F7S]: 0.948 fold
GDFPVMFMPDYSIIY [K10D]: 1.24 fold
GDFPVIFMPKYSIIY [M6I]: 9.75 fold
GYFPVMFMPKYSIIY [D2Y]: 6.15 fold

Mixed results
C[C@H](c1cccc(C#N)c1)n1cc(Cl)cc(C(N)=O)c1=N — remaining binding (Cyclin-dependent kinase 2 homolog (CRK2, Plasmodium falciparum, UniProt P61075); cell-free assay, competition with immobilised ligand; 1 µM): 100%

Some of these lines once more (block 4):
GDFPVMFMPKMSIIY [Y11M]: 2.28 fold
GDFPSMFMPKYSIIY [V5S]: 8.39 fold
GDFPVIFMPKYSIIY [M6I]: 9.75 fold
GDFPVMFMPDYSIIY [K10D]: 1.24 fold
GDFPVMSMPKYSIIY [F7S]: 0.948 fold
